Experimental data gathered from unrelated publications.
A part holds a random share of what one study measured.

Study 1 — method: RNA Bind-n-Seq; molecule type: RNA; medium: in vitro; concentration: 365 nM; relative to: no-protein control; reading: higher = stronger binding
Target: RNA binding protein fox-1 homolog 2, RRM domain, GST-SBP tag (RBFOX2, Homo sapiens, UniProt O43251-10, residues 100-194)
Setting: natural RNA segment, single round, ends assumed
Constant ends, left off below: GGGAGUUCUACAGUCCGACGAUC … UGGAAUUCUCGGGUGCCAA
Target sequence (chain): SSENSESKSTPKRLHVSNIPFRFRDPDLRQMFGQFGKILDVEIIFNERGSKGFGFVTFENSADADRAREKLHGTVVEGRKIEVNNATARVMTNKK
`GCUGAUACAGUACUCAGAAGACUGAACAAAUACUUGAAAAUGGGUUCAAUGUAGACUGCCAUUCUGUGUGGUCUUCCCAUUAAAUGUGAACAUUUUAAUAUGUAUGCAUU` — result for “RBNS enrichment (R)”: 0.205.
`CCCCGAGUCCCUGCUGCUGCGCUCCUUUGCAUCCCUGGCCAGUGACCUUGUAUUUAUGAGGCCUCUGUGAGGCCAGCCCCCACCUUCCUCUUUCCCACCUGUCCCAGGAC`: “RBNS enrichment (R)” 3.2.
`AGGGAUAAGGCUUCAGUGCUGUUGGGAGCCCUCUGGCUCCAAAUGUCUGACUAUCUUGAGGGAGAAACAAGCAGGUUUCUACUAGUGGUGUCUUCUGUUGUAUUAACUUC`: “RBNS enrichment (R)” 0.372.
`UCUGUGACUGUUGCUGAGUCUCUGUCUCAUGUCGUAGAAUUGUGGAUAAUUGUCUAGUGACCCUCUCAUCACUGUAACCAUCGCGCCUGGCCUAGAUGUCGUGUUUUGGA`: “RBNS enrichment (R)” 0.413.
For `UUUGUUCUUUCAUUUCUCCCAGCACUCACUUUCUGCCUGAGUCCGGUCCAAGGACUUUUACUUUGCGCUUCGUAACUACUGCCAGCUUCUCCUCUCCUGGCCCUGCUCCC`, “RBNS enrichment (R)” read 1.36.
`UGGCUAGGCUAGUCUCGAAUUCCUGACCUCAAGUGAUCCACCCGCCUUGGCCUCUCGAAGUGCUGGGAUUACAGGCGUGAGCCACCCGCCCGGCUAUCAGCACUGUUCUG` — result for “RBNS enrichment (R)”: 0.376.
`AGAAAGCACGAAAAAUUAUUUAUAAUAGUCUGGAGAAAAAACACACUGUAAUAUUUCAAGUGUAUGCAGUAGAAUGUACUGUAACUGAGCCCUUUCCCACAUGUCUAGGC` — result for “RBNS enrichment (R)”: 4.32.
`AGUGAAAGUUGACAUUGUGUUUCAGAACUCUUGGUGUCCCUCUCAUUCCUAUCCUUCCUGGUACUGCAGUCAACCAAAGAUGGCAUGACUUACCUGCGCAGAUCUGGAAG` — result for “RBNS enrichment (R)”: 1.04.

Study 2 — method: protein-binding microarray; molecule type: double-stranded DNA, one strand shown; medium: in vitro; concentration: 2540 nM top; setting: 60-bp whole probe; with: salmon DNA 0.4 mg/ml; relative to: random background probes; reading: higher = stronger binding; constant ends, left off below: GCCTAGCAC … GTCTTGATTCGCTTGACGCTGCTG
Target: Interferon regulatory factor 3, full length, phosphomimetic (IRF3, Homo sapiens, UniProt Q14653, residues 1-427, S386D/S396D/S398D/S402D/T404D/S405D)
Construct (chain): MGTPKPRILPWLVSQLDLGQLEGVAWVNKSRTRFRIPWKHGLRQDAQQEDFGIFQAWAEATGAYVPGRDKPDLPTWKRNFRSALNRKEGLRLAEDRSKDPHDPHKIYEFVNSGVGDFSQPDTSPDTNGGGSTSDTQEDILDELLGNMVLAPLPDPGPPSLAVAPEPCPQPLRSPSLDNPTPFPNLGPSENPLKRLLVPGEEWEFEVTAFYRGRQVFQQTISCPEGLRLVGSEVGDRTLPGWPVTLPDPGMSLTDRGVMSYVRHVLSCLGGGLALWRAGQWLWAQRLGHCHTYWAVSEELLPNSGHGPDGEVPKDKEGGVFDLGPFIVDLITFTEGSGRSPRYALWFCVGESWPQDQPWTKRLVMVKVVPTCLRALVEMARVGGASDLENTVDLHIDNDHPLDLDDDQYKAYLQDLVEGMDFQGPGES
`TTATTTATAAATTATCTTTAAGTGCTA` — result for “fitted relative affinity”: 0.445 z-score.
`TCACATGTGGGTTCCATACTGTGCTAG`: “fitted relative affinity” 1.41 z-score.
Under “fitted relative affinity”, `TTAGGTTTCGGGTTTCGGTGAGTGCTA` is recorded as 5.51 z-score.
Under “fitted relative affinity”, `GACGATATCGGGTATCGAGACGTGCTA` is recorded as 0.241 z-score.
`TTAGATCTCATACTGGATTAGTGCTAG` — result for “fitted relative affinity”: 0.31 z-score.
Under “fitted relative affinity”, `ACTGCTCTGTTGCCTGGTCCTGTGCTA` is recorded as -0.105 z-score.
Under “fitted relative affinity”, `GACGGTATCAGGACTGGGGACGTGCTA` is recorded as 1.87 z-score.
Under “fitted relative affinity”, `GACGGTCTCCTTATCCGGACGTGCTAG` is recorded as 3.2 z-score.
`TTAGGTCTCCCTTTCCTTTAGTGCTAG`: “fitted relative affinity” 4.3 z-score.
For `TTAGGTCTCGACACTGGGTTAGTGCTA`, “fitted relative affinity” read -0.697 z-score.
`GCTTTTATGGTATTTTTTTCGTGCTAG` — result for “fitted relative affinity”: 0.719 z-score.
For `TTGGGTATCGGGTTTCGGTTAGTGCTA`, “fitted relative affinity” read 3.33 z-score.
`GACGATTTCAGACTGGCGACGTGCTAG` — result for “fitted relative affinity”: 1.03 z-score.
`CAGCCGCACAGCATGAGTTCGTGCTAG`: “fitted relative affinity” -0.827 z-score.
For `TCATCTATCTCTGTTTTACTGTGCTAG`, “fitted relative affinity” read 1.33 z-score.
`TTACTTCCCAATAATCTTTTCGTGCTA`: “fitted relative affinity” 1.47 z-score.
Under “fitted relative affinity”, `TTAGAACTCAGTTTCGATTAGTGCTAG` is recorded as 3.55 z-score.
`CAAATTGTCTCTGTCCCTGTGTGCTAG`: “fitted relative affinity” 1.53 z-score.
For `GACGAACTGGCGTTTCGAGACGTGCTA`, “fitted relative affinity” read 0.331 z-score.

Study 3 — method: protein binding microarray; molecule type: double-stranded DNA, one strand shown; medium: in vitro; concentration: not given; relative to: not given; reading: higher = stronger binding
Target: Histone acetyltransferase KAT6A, both winged helices, GST fusion (KAT6A, Homo sapiens, UniProt Q92794, residues 1-181)
Setting: 8-mer, flanks averaged, mean of 2 arrays, mostly near background
Target sequence (chain): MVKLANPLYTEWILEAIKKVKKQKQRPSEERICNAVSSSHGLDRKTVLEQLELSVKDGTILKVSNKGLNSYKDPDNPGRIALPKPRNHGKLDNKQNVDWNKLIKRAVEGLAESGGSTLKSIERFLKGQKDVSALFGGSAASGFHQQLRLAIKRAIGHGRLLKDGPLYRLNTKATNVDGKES
`AGAGGGTG` has an E-score of -0.193.
`ACGGTACC` has an E-score of 0.142.
For `GGCTTGAA`, the E-score was 0.011.
For `GAGTGGCA`, the E-score was -0.147.
`GCGATCCC` gave an E-score of 0.0796.
`CAGTCTAG` has an E-score of -0.0799.
`CCAACCTC` has an E-score of -0.0799.
With `ACGCGCAG` the E-score was 0.236.
`AAGGCTAC` has an E-score of -0.18.
With `ATCAGGCC` the E-score was -0.091.
`TCTAGCCA` has an E-score of -0.0989.
With `ATGGGACA` the E-score was -0.00617.
`GGAAAGAA` gave an E-score of -0.142.
With `GCATCTGA` the E-score was -0.0504.
`CGCGCATC` has an E-score of 0.365.

Study 4 — method: RNA Bind-n-Seq; molecule type: RNA; medium: in vitro; concentration: 15 pmol; setting: 4-mer, random 30-nt RNA, single round; with: 3 µM DMDA-PatA, 2 mM AMP-PNP; relative to: input library; reading: higher = stronger binding
Target: Eukaryotic initiation factor 4A-I (EIF4A1, Homo sapiens, UniProt P60842, residues 1-406, full length assumed)
Sequence of UniProt P60842 (whole entry, looked up): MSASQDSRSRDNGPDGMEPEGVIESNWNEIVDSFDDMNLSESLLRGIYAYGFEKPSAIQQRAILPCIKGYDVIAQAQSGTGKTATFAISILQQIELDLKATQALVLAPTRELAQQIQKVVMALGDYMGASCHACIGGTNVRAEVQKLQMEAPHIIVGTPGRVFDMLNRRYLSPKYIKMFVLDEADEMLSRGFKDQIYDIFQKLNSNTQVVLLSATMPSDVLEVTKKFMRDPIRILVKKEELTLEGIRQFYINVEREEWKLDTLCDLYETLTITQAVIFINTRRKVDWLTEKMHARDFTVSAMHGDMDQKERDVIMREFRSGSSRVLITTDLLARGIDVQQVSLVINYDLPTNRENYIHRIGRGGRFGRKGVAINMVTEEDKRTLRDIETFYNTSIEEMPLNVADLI
For `GGAC`, the 4-mer enrichment was 0.874 fold.
`CGUC` has a 4-mer enrichment of 0.57 fold.
`AUGG` has a 4-mer enrichment of 1.35 fold.
For `CUGA`, the 4-mer enrichment was 0.634 fold.
The 4-mer enrichment of `AUAA` is reported as 0.791 fold.
`CUGC` gave a 4-mer enrichment of 0.611 fold.
`UGAA` gave a 4-mer enrichment of 1.18 fold.
For `UGCA`, the 4-mer enrichment was 0.944 fold.
With `AAAC` the 4-mer enrichment was 0.475 fold.
`GAGU` has a 4-mer enrichment of 1.35 fold.
With `CAGA` the 4-mer enrichment was 0.631 fold.
`GCUU` gave a 4-mer enrichment of 0.862 fold.
With `UGUG` the 4-mer enrichment was 1.9 fold.
`GGCG` has a 4-mer enrichment of 1.02 fold.

Some of these lines once more (study 3):
With `ACGCGCAG` the E-score was 0.236.
`AAGGCTAC` has an E-score of -0.18.
With `ATCAGGCC` the E-score was -0.091.
`TCTAGCCA` has an E-score of -0.0989.
